Measurements from different studies.
Organism: Klebsiella pneumoniae

Structure (SMILES)	assay	system	setting	MIC
CCCCCCCC(=O)N[C@@H](CCN)C(=O)N[C@H](C(=O)N[C@@H](CCN)C(=O)N[C@H]1CCNC(=O)[C@H]([C@@H](C)O)NC(=O)[C@H](CCN)NC(=O)[C@H](CCN)NC(=O)[C@H](CC(C)C)NC(=O)[C@@H](Cc2ccc(Br)cc2)NC(=O)[C@H](CCN)NC1=O)[C@@H](C)O	broth microdilution	ATCC 19606	–	< 0.125 µg/mL
N=C(N)NCCC[C@@H]1NC(=O)[C@H](CCCNC(=N)N)NC(=O)[C@H](CCCNC(=N)N)NC(=O)[C@@H](CCCNC(=N)N)NC(=O)[C@H](Cc2ccc3ccccc3c2)NC(=O)[C@H](Cc2ccc3ccccc3c2)NC(=O)[C@H](Cc2ccc3ccccc3c2)NC1=O	–	ATCC 700603, ESBL SHV-18	–	64 µg/mL
CCn1c(-c2ccc(-c3ccc(F)cc3)cc2)c(-c2ccc(-c3ccc(F)cc3)cc2)n(CC)c1=[Se]	broth microdilution	carbapenem-resistant BAA-1705	24 h	> 40 µM
CC[C@H](C)[C@H](NC(=O)[C@@H](CCCNC(=N)N)NC(=O)[C@H](CCCNC(=N)N)NC(=O)[C@H](CC(N)=O)NC(=O)[C@H](Cc1c[nH]c2ccccc12)NC(=O)[C@H](CCCNC(=N)N)NC(=O)[C@@H]1CCCN1C(=O)[C@H](CCCNC(=N)N)NC(=O)[C@@H]1CCCN1C(=O)[C@H](CC(C)C)NC(=O)[C@H](Cc1ccc(O)cc1)NC(=O)[C@@H]1CCCN1C(=O)[C@@H]1CCCN1C(=O)[C@H](CCCCN)NC(=O)[C@H](CC(=O)O)NC(=O)[C@@H](N)C(C)C)C(=O)N[C@@H](Cc1ccc(O)cc1)C(=O)N[C@@H](CC(N)=O)C(=O)N[C@H](CCCNC(=N)N)C(N)=O	broth microdilution	DSM 681	18 h, 37 °C, 25% MHB2	2 µg/mL
COc1ccc(O)c(/C=N/[C@@H]2CCCC[C@@H]2/N=C/c2c(O)ccc3ccc(OC)cc23)c1	bacterial growth, broth microdilution	carbapenem-resistant	–	> 40 µM
CC[C@H](C)[C@H](NC(=O)[C@@H](CCCNC(=N)N)NC(=O)[C@H](CCCNC(=N)N)NC(=O)[C@@H](NC(=O)[C@H](Cc1c[nH]c2ccccc12)NC(=O)[C@H](CCCNC(=N)N)NC(=O)[C@@H]1CCCN1C(=O)[C@H](CCCNC(=N)N)NC(=O)[C@@H]1CCCN1C(=O)[C@H](CC(C)C)NC(=O)[C@H](Cc1ccc(O)cc1)NC(=O)[C@@H]1CCCN1C(=O)[C@@H]1CCCN1C(=O)[C@H](CCCCN)NC(=O)[C@H](CC(=O)O)NC(=O)[C@@H](N)C(C)C)[C@@H](C)O)C(=O)N[C@@H](Cc1ccc(O)cc1)C(=O)N[C@@H](CC(N)=O)C(=O)N[C@H](CCCNC(=N)N)C(N)=O	broth microdilution	DSM 681	18 h, 37 °C, 25% MHB2	4 µg/mL
N=C(N)NCCC[C@@H]1NC(=O)[C@@H](CCCNC(=N)N)NC(=O)[C@H](CCCNC(=N)N)NC(=O)[C@@H](C(c2ccccc2)c2ccccc2)NC(=O)[C@@H](C(c2ccccc2)c2ccccc2)NC(=O)[C@@H](C(c2ccccc2)c2ccccc2)NC(=O)[C@@H](CCCNC(=N)N)NC1=O	–	1188718, multidrug-resistant	–	> 64 µg/mL
CCCCCCCC(=O)N[C@@H](CCN)C(=O)N[C@H](C(=O)N[C@@H](CCN)C(=O)N[C@H]1CCNC(=O)[C@H]([C@@H](C)O)NC(=O)[C@H](CCN)NC(=O)[C@H](CCN)NC(=O)[C@H](CCC(C)C)NC(=O)[C@@H](Cc2ccccc2)NC(=O)[C@H](CCN)NC1=O)[C@@H](C)O	broth microdilution	ATCC 13883, colistin-susceptible	–	0.25 to 4 µg/mL
CC1(C)[C@H](NC(=O)/C(=N\OCC(=O)N2CCC(C(=O)O)C2)c2nsc(N)n2)C(=O)N1OS(=O)(=O)O (stereo partly drawn)	agar dilution	09-20, NDM-1	–	64 µg/mL
CC[C@H](C)[C@H](NC(=O)CN)C(=O)NCC(=O)N[C@@H](C)C(=O)N[C@H](C(=O)N[C@@H](CC(C)C)C(=O)N[C@@H](CCCCN)C(=O)N[C@H](C(=O)N[C@@H](CC(C)C)C(=O)N[C@H](C(=O)N[C@H](C(=O)NCC(=O)N[C@@H](CC(C)C)C(=O)N1CCC[C@H]1C(=O)N[C@@H](C)C(=O)N[C@@H](CC(C)C)C(=O)N[C@H](C(=O)N[C@@H](CO)C(=O)N[C@@H](Cc1c[nH]c2ccccc12)C(=O)N[C@H](C(=O)N[C@@H](CCCCN)C(=O)N[C@@H](CCCNC(=N)N)C(=O)N[C@@H](CCCCN)C(=O)N[C@@H](CCCNC(=N)N)C(=O)N[C@@H](CCC(N)=O)C(=O)N[C@@H](CCC(N)=O)C(N)=O)[C@@H](C)CC)[C@@H](C)CC)[C@@H](C)O)[C@@H](C)O)C(C)C)C(C)C	CLSI broth microdilution	ATCC 13883	18 h, 37 °C	2 µM
CC(N)C(O)CCCCCCCCCCCCCCC(=O)CCCCCCCC(O)C(C)N (stereo not drawn)	resazurin	–	–	> 50 µM
CC1(C)[C@H](NC(=O)/C(=N\OCC(=O)N2CCC[C@@H]2C(=O)O)c2nsc(N)n2)C(=O)N1OS(=O)(=O)O	agar dilution	2146, NDM-1	–	> 64 µg/mL
CC[C@H](C)[C@H](N)C(=O)N[C@@H](CCCNC(=N)N)C(=O)N[C@H](C(=O)N[C@@H](Cc1c[nH]c2ccccc12)C(=O)N[C@@H](CCCCN)C(=O)N[C@@H](CCCCN)C(=O)N[C@H](C(=O)N[C@H](C(=O)N[C@@H](CCCNC(=N)N)C(=O)N[C@@H](CCCCN)C(=O)N[C@@H](Cc1c[nH]c2ccccc12)C(=O)N[C@@H](CCCCN)C(=O)N[C@@H](C)C(=O)N[C@H](C(=O)N[C@@H](Cc1c[nH]c2ccccc12)C(=O)N[C@@H](Cc1c[nH]cn1)C(N)=O)[C@@H](C)CC)C(C)C)[C@@H](C)CC)C(C)C	broth dilution	ATCC 700603	–	25 µM
C#CCNC(=O)C(C)(C)O/N=C(\C(=O)N[C@@H]1C(=O)N(S(=O)(=O)O)[C@H]1C)c1csc(N)n1	agar dilution	2146 NDM-1	–	> 128 µg/mL
CN[C@@H]1[C@H](O)[C@H](NC)[C@H]2O[C@]3(O)[C@H](O[C@@H]2[C@H]1O)O[C@H](C)C[C@H]3NC(=O)Cc1ccccc1	microbial growth, broth dilution	ATCC33495	–	> 200 µg/mL
CC[C@H](C)[C@H](NC(=O)[C@@H](CCCNC(=N)N)NC(=O)[C@H](CCCNC(=N)N)NC(=O)[C@H](Cc1ccc(O)cc1)NC(=O)[C@H](Cc1c[nH]c2ccccc12)NC(=O)[C@H](CCCNC(=N)N)NC(=O)[C@@H]1CCCN1C(=O)[C@H](CCCNC(=N)N)NC(=O)[C@@H]1CCCN1C(=O)[C@H](CC(C)C)NC(=O)[C@H](Cc1ccc(O)cc1)NC(=O)[C@@H]1CCCN1C(=O)[C@@H]1CCCN1C(=O)[C@H](CCCCN)NC(=O)[C@H](CC(=O)O)NC(=O)[C@@H](N)C(C)C)C(=O)N[C@@H](Cc1ccc(O)cc1)C(=O)N[C@@H](CC(N)=O)C(=O)N[C@H](CCCNC(=N)N)C(N)=O	broth microdilution	DSM 681	18 h, 37 °C, 25% MHB2	4 µg/mL
COc1ccc2ccc(O)c(/C=N/[C@H]3CCCC[C@H]3/N=C/c3cccc(F)c3O)c2c1	bacterial growth, broth microdilution	carbapenem-resistant clinical isolate	–	> 40 µM
CC[C@H](C)[C@H](NC(=O)[C@H](CCCNC(=N)N)NC(=O)[C@H](Cc1c[nH]c2ccccc12)NC(=O)[C@H](Cc1c[nH]c2ccccc12)NC(=O)[C@H](CCCNC(=N)N)NC(=O)[C@@H](N)CCCNC(=N)N)C(=O)N[C@@H](Cc1c[nH]c2ccccc12)C(N)=O	–	13883	–	128 µg/mL

Excerpt of the above:
Structure (SMILES)	assay	system	setting	MIC
CCn1c(-c2ccc(-c3ccc(F)cc3)cc2)c(-c2ccc(-c3ccc(F)cc3)cc2)n(CC)c1=[Se]	broth microdilution	carbapenem-resistant BAA-1705	24 h	> 40 µM
CC[C@H](C)[C@H](NC(=O)[C@@H](CCCNC(=N)N)NC(=O)[C@H](CCCNC(=N)N)NC(=O)[C@H](CC(N)=O)NC(=O)[C@H](Cc1c[nH]c2ccccc12)NC(=O)[C@H](CCCNC(=N)N)NC(=O)[C@@H]1CCCN1C(=O)[C@H](CCCNC(=N)N)NC(=O)[C@@H]1CCCN1C(=O)[C@H](CC(C)C)NC(=O)[C@H](Cc1ccc(O)cc1)NC(=O)[C@@H]1CCCN1C(=O)[C@@H]1CCCN1C(=O)[C@H](CCCCN)NC(=O)[C@H](CC(=O)O)NC(=O)[C@@H](N)C(C)C)C(=O)N[C@@H](Cc1ccc(O)cc1)C(=O)N[C@@H](CC(N)=O)C(=O)N[C@H](CCCNC(=N)N)C(N)=O	broth microdilution	DSM 681	18 h, 37 °C, 25% MHB2	2 µg/mL
